Measurements from different studies.
Every numbered part comes from another study and shows a few of its results, in no order. Changes are numbered by the printed parent chain.

Study 1 — technique: RNA Bind-n-Seq; form: RNA; medium: in vitro; concentration: 365 nM; baseline: no-protein control; direction: higher = stronger binding
Target: RNA binding protein fox-1 homolog 2, RRM domain, GST-SBP tag (RBFOX2, Homo sapiens, UniProt O43251-10, residues 100-194)
Notes: natural RNA segment, single round, ends assumed
Constant ends, left off below: GGGAGUUCUACAGUCCGACGAUC … UGGAAUUCUCGGGUGCCAA
Construct (chain): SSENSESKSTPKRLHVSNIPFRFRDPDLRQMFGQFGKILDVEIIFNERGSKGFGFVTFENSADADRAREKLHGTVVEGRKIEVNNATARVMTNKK
Sequence | RBNS enrichment (R)
CUCCCUUGAGUGCUCACCCUCCACCUACCAGACUGGAAGCUGACUUUAAGUCCUCUAAUAAAAAUAAUGAGCCCUCCAAGUCCCUCUUGAUAGCUUCUAUUUGUUAGAAG | 0.309
UGCACCAGGGUUGGCAUUGCUCCCACUGAGCCCUACUCCACCCUGUCCCUGCACUCCCUUGGUUGCCAAAAAAAUGAUAACUUAAAUCCCUUCCAGACUUAAGAAUUUUA | 1.07
AGGUUGUUCACCUUUUCAUCUGAAAAUGCUUUACUCUGACUAUGUGCUAUUGGGUUUUAUUUCCAGAAAAUAUAGUUCUCCUUUUUUCUGCAUGAAGGAUACAUCGUGGU | 1.39
UUUGGUAGACAUGUGCUUUGACAUAGCGUGAGCAGCACAUUACUAAAGCAAUUACAUGCAUGUUGCAUUUUUUUCAUCUGUUGUACAUAGUUGUAUUUUUAUCUAAUGCC | 2.15
CGCUUCUGCUUUCACCAAGAGAGUGUUUCUUCACUCAACUCAGGUGGCAUUUGGGGUGACAUCUCAAAGGCCAGGAAUUCCGUUGACUUGUUGGCUGCCAGUAGGGGCGG | 0.899
CACAUGUUCAUAUAGCAAUGUAAAAACCUACUAAUGAGUAUUUGGUAAUUUCCCAUUAGCAUAAUUUUAUGUUGUACAAGUAAAUUACAAUUCCAUCUCUAAUCUUGGAU | 0.481

Study 2 — technique: protein binding microarray; form: double-stranded DNA, one strand shown; medium: in vitro; concentration: not given; baseline: not given; direction: higher = stronger binding
Target: Histone acetyltransferase KAT6A, winged helix 1, GST fusion (KAT6A, Homo sapiens, UniProt Q92794, residues 1-85)
Notes: 8-mer, flanks averaged, mean of 2 arrays, mostly near background
Construct (chain): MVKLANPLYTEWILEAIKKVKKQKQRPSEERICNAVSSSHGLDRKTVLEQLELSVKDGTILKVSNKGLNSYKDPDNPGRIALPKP
Sequence | E-score
AATATAGG | 0.00626
AAATTTCA | -0.357
ACGCTGCC | 0.221
ACTGGCAG | -0.0537
ATGACAAC | -0.146

Study 3 — target: CCNA1, cyclin fold, Cln2 fusion (human); technique: yeast growth competition, sequencing; medium: yeast; notes: weak parent motif; baseline: not given; direction: higher = stronger binding
Starting sequence: WEE1 docking peptide (human); HKTFRKLRLFDTP
Change | normalised enrichment score
R5K L9F | -0.565
R8N | 0.085
H1K | 0.424
K2T | 0.324
L7H | 0.127
F4S | 0.0429

Other studies, line by line
Molecule | target | test | test system | conditions | how to read | measurement | result
PhoQ, residues 284 288 289 292 302 303 ASTSDA | PhoP, residues 12 14 15 18 19 YHFSH (Escherichia coli, UniProt P23836) | Sort-seq, measured: YFP reporter | E. coli | PhoQ-PhoP variant library, together with: 10 µM Mg2+ | baseline: high Mg2+ state, higher = stronger signaling | fold induction | 2.56

Repeated from above (study 1):
Sequence | RBNS enrichment (R)
AGGUUGUUCACCUUUUCAUCUGAAAAUGCUUUACUCUGACUAUGUGCUAUUGGGUUUUAUUUCCAGAAAAUAUAGUUCUCCUUUUUUCUGCAUGAAGGAUACAUCGUGGU | 1.39
UUUGGUAGACAUGUGCUUUGACAUAGCGUGAGCAGCACAUUACUAAAGCAAUUACAUGCAUGUUGCAUUUUUUUCAUCUGUUGUACAUAGUUGUAUUUUUAUCUAAUGCC | 2.15
CGCUUCUGCUUUCACCAAGAGAGUGUUUCUUCACUCAACUCAGGUGGCAUUUGGGGUGACAUCUCAAAGGCCAGGAAUUCCGUUGACUUGUUGGCUGCCAGUAGGGGCGG | 0.899
